# Experimental data gathered from unrelated publications.
# Parts stem from different laboratories: compare values within a part only.

# Series 1
# Target: POU, POU domain (Salpingoeca helianthica)
# Technique: Spec-seq
# Form: double-stranded DNA, one strand shown
# Matrix: in vitro
# Tested at: not given
# Notes: whole probe, mean of replicates
# Baseline: not given
# Reading: lower = stronger binding
# Constant ends, left off below: GAGTCGTCTCGTCAGCAC … CCGTAGAGCACTCAGGTC
# Target sequence (chain): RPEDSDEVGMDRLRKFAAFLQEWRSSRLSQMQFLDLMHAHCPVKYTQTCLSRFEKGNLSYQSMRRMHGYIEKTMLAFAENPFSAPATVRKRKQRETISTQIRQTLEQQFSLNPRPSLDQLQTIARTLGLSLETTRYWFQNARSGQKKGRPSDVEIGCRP
Oligonucleotide,relative binding energy
ATAACAAT,-0.0582 ln ratio
ATGCTCCC,1.62 ln ratio
ATGCAAGG,1.36 ln ratio
GTAGTAAT,0.456 ln ratio
ATTTTCAT,0.784 ln ratio
CTGATAAT,0.176 ln ratio
TCCTTAAT,0.364 ln ratio
ATGCATGC,1.12 ln ratio
ATGCGTGC,1.3 ln ratio
TATCTAAT,0.788 ln ratio
ATGCAAAG,1.5 ln ratio
ATCTAGAT,1.13 ln ratio
ATATGTAT,0.808 ln ratio
ATTATGAT,0.476 ln ratio
TCTTTAAT,-0.358 ln ratio
ATGCTAAT,0.674 ln ratio
ATCAAGAT,0.992 ln ratio
ATGCAGCG,1.41 ln ratio
ATTCGAAT,0.912 ln ratio
ATTCCAAT,1.01 ln ratio
ATCAGTAT,1.02 ln ratio
GAATTAAT,-0.952 ln ratio
ATTGCGAT,1.38 ln ratio
ATGCTTGT,1.23 ln ratio
ATGAATAT,0.706 ln ratio

# Series 2
# Target: Interferon regulatory factor 3, full length, phosphomimetic (IRF3, Homo sapiens, UniProt Q14653, residues 1-427, S386D/S396D/S398D/S402D/T404D/S405D)
# Technique: protein-binding microarray
# Form: double-stranded DNA, one strand shown
# Matrix: in vitro
# Tested at: 2540 nM top
# Notes: 60-bp whole probe
# With: salmon DNA 0.4 mg/ml
# Baseline: random background probes
# Reading: higher = stronger binding
# Constant ends, left off below: GCCTAGCAC … GTCTTGATTCGCTTGACGCTGCTG
# Target sequence (chain): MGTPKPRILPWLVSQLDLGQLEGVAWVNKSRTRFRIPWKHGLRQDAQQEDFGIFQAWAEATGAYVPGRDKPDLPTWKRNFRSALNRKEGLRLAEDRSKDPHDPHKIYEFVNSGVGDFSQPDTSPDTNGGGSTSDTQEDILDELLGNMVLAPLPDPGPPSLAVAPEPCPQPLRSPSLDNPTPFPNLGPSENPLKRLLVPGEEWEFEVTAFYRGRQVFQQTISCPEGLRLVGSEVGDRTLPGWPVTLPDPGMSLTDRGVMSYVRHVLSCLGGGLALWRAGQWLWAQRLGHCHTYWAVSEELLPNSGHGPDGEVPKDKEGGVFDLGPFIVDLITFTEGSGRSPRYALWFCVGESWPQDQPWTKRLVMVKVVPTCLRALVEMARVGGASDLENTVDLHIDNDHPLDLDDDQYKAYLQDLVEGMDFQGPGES
Oligonucleotide,fitted relative affinity [z-score]
TGGGTCTTGGTTCTCAGCTTGTGCTAG,-0.687
GTAGTAATGAATATAATACCGTGCTAG,0.0696
GACGATCTCAGTCTCGATACGTGCTAG,1.05
TTAGATTCCAGTTTCGATCAGTGCTAG,4.27
TCAATTTTTTTTATCAAACTGTGCTAG,0.491
CGAGGTCTCGCTATGTTGTCGTGCTAG,-0.558
GTAGGTTTCCTTTTCCTTTAGTGCTAG,11.6
TCAGGTATCCTTATCCTTTAGTGCTAG,5.52
GTAGATTTCGGGTTTCGATTAGTGCTA,3.51
GACGGTTTCCTTCTACTGACGTGCTAG,7.89
GACGGTCACGGACTGGGGACGTGCTAG,-0.758
GCCACCGGTCTCCATGGGTCGTGCTAG,0.328
GGCGGTCTCGGTTTCGGGACGTGCTAG,3.52
TTAGAACTGGGGTTTCGATTCGTGCTA,2.62
GACGATTTCAGTATCGATACGTGCTAG,3.15
TTAGATTTCAGTCTCGATTAGTGCTAG,2.36
TTAGGTATCCTACTGCTTAAGTGCTAG,2.72
TCAACTCTGGAGGTTGAGACTGTGCTA,-0.438
CTAGATTTCAGTTTCGATTAGTGCTAG,5.94
TTAGATTTAGGGTATCGATTAGTGCTA,0.000838
TTGAACTTCGGCCTCTAGGTGTGCTAG,-1.08
TTTGCTTTCATTTATTTACTGTGCTAG,2.07
GACGGTCTCGGTATTGGGACGTGCTAG,0.969
TTCGGTATCGGTTTCGGTTAGTGCTAG,8.4
TTTGGTTTCGACTATCGGTTAGTGCTA,2.93

# Series 3
# Target: Ras GTPase-activating protein-binding protein 1, C-terminal RGG region (G3BP1, Homo sapiens, UniProt Q13283)
# Sequence of UniProt Q13283 (whole entry, looked up): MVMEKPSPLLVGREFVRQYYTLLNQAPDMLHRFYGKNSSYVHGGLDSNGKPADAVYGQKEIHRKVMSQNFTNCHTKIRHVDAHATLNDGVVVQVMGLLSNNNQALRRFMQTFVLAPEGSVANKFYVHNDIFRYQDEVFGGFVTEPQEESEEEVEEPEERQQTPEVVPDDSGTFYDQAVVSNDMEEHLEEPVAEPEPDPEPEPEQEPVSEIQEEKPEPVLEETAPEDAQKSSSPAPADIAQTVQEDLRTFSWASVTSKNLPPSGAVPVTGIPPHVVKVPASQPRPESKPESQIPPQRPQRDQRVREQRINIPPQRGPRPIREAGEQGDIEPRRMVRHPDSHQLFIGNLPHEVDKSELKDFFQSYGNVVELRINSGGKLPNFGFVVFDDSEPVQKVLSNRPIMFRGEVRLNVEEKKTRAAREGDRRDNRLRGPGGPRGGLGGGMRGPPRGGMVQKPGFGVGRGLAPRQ
# Technique: RNA Bind-n-Seq
# Form: RNA
# Matrix: in vitro
# Tested at: 1 µM
# Notes: whole 134-nt RNA, ends assumed
# With: 150 mM KCl
# Baseline: input library
# Reading: higher = stronger binding
# Constant ends, left off below: GGGAGUUCUACAGUCCGACGAUC … UGGAAUUCUCGGGUGUCAAGG
Oligonucleotide,log2 enrichment
UCAAGUCCUGUGCUACACAUCGUAUGUACCGAAUCGGCCGGGGCCGGGGCCGGGAAAGUAUUAUGUUACGCCGUUCGGAUCUGCACUUCC,-1.88
AAGUCCUGUGCUACACAUCGUAUGUACCGAAUCGGGGCCCCGGCCCCGGGCCCCGGAAAGUAUUAUGUUACGCCGUUCGGAUCUGCACUU,-1.96
AAGUCCUGUGCUACACAUCGUAUGUACCGAAUCGGGAAAAAGGGUUUUUGGGAGGGAAAGUAUUAUGUUACGCCGUUCGGAUCUGCACUU,0.885
GUCCUGUGCUACACAUCGUAUGUACCGAAUCGGGAAAAAGGGAAAGGGAAAAAAAGGGAAAGUAUUAUGUUACGCCGUUCGGAUCUGCAC,-0.815
CUCAAGUCCUGUGCUACACAUCGUAUGUACCGAAUCGGGGUGGUGGGGUGGGGAAAGUAUUAUGUUACGCCGUUCGGAUCUGCACUUCCA,0.256
GCAGGAAGUAAAAACAAAUGGGAAUGCUUCGGAUAGUGGCAGGGGUGGGGGUUGCUAAGGAAAGGGUGGGAUGGGAGUGGGUAAAGAGUU,2.31
CCUCAAGUCCUGUGCUACACAUCGUAUGUACCGAAUCGGCCGGGCCGGGCCGGAAAGUAUUAUGUUACGCCGUUCGGAUCUGCACUUCCA,-1.28
GUCCUGUGCUACACAUCGUAUGUACCGAAUCGGGGAAAGGGGAGGGGUUUUUUUGGGGAAAGUAUUAUGUUACGCCGUUCGGAUCUGCAC,2.18
CUCAAGUCCUGUGCUACACAUCGUAUGUACCGAAUCGGGAGGGAGGGUUUGGGAAAGUAUUAUGUUACGCCGUUCGGAUCUGCACUUCCA,2.23
UAACUUUAGAGGAGGAUCUGAUGGAUAUGGCAGUGGACGUGGAUUUGGGGAUGGCUAUAAUGGGUAUGGAGGAGGACCUGUAGGUGGCAA,-1.13
UGCCAUGGACAAUAUUACCAGGCAGAACCAAUUCUACGAUACCCAAGUCAUCAAACAAGAAAACGAGUCAGGCUACGAGAGGAGACCACU,-0.964
AAGUCCUGUGCUACACAUCGUAUGUACCGAAUCGGGUUUUUGGGUUUGGGAAAGGGAAAGUAUUAUGUUACGCCGUUCGGAUCUGCACUU,0.901
GCAGGAAGUAAAAACAAACGGAAAUGCUUCGGAUAGUGGCAGGGGUGGGGGUUGCUAAGGAAAGGGUGGGAUGGGAGUGGGUAAAGAGUU,1.62
GUCCUGUGCUACACAUCGUAUGUACCGAAUCAAACCCCCAAAUUUUUUUAAAUUUAAAAAAGUAUUAUGUUACGCCGUUCGGAUCUGCAC,-0.622

# Series 4
# Target: RNA binding protein fox-1 homolog 2, RRM domain, GST-SBP tag (RBFOX2, Homo sapiens, UniProt O43251-10, residues 100-194)
# Technique: RNA Bind-n-Seq
# Form: RNA
# Matrix: in vitro
# Tested at: 365 nM
# Notes: natural RNA segment, single round, ends assumed
# Baseline: no-protein control
# Reading: higher = stronger binding
# Constant ends, left off below: GGGAGUUCUACAGUCCGACGAUC … UGGAAUUCUCGGGUGCCAA
# Construct (chain): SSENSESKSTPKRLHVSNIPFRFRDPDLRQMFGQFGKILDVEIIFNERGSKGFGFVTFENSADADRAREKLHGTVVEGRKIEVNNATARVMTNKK
Oligonucleotide,RBNS enrichment (R)
UCCAGCUUGUUGUGUUUAUAAAUCAUAAAGUCAUGAUAUACCUUCUACAGACAUAGCAUUUUUUCAGAGAUGGAAAAUGGCCAUUAGAGUCACUUUCCAUAUUAUACCCU,0.539
CAAAAAUAUUUAAGUGUGCCUAUGAUAAUGUCUGAACCUGAGUUUAAGAAAUGUGAUGUAGCCGGGCGUGGUGGCACACGCCUUUAAUCCCAGCACUUGGGAGGCAGACG,1.2
GAAGUCAGCCCCUGCCCAGAAGAUCUGAAACUAAUAGUAGGAGUUUCCCCAGAAGUCAUUUUCAGCCUUAAUUCUCAUCAUGUAUAAAUUAACAUAAAUCAUGCAUGUCU,0.78
GGUGCACCUCCCUUUUCAGGCACUCUGAGUGUCCUUCCCACCCAUGACAAGGCAACCACAGAAGUCAGAACAAUCAGGCUUGAGUGGGUGGCCAGGUCAGCUACUGCCCU,0.25
AGGUCCUGCAGGUCGAUGUGUGAGUCAGGAAACACUGCAGGGAAAUAGACCUUUCCUUCCGUACCUGAGAGCUGCAGGUACCAAGGGAUCUACCGUGCAGGGACUGGGCA,1.36
AACCUGGUCCUCGGGGAAAAAGAGAAGUCACCUUUGGACCUUCGACCUAGCUUUGUCUUUGCCCCAGGUCCCCAUGAACUUCCCUGUCCUCAGCUGAAUGCCUCCAAGUC,0.418
UCGAGGAUGCUGACCUAAGCCAGAGCCAUCUAGUUGCCCCUCUGGGCAACUUUGGGAAUUCUGGGAUCCCACUGUCUUGACAGGUUCCUAGACCGGAGCGCAUGCUGGCU,9.74
UUGCUGUCACUGGUCAUAUGGCCAGCAAGUGCAGAGAAACAAGAAACAAAUGUGCCCACCCCACCUUCCACUUAAAGAAAAAAAAUCUCAAAAUAAAUUUCUGAAUUAUG,0.275
UCGUAUUUGGCACACAGCAGAGGCCCAGAUAUUAGAAAGGCUCUAUUCCAAUAAACUAUGAGGACUGCCUUAUGGAUGAUUUAAGUGUCUCACUAAAGCAUGAAAUGUGA,9.38
AUGAAGCAAAGUUCCCUCUCAGCAAACACUGAGAGGCCAUGGAGAAGGACUUCUAGAAUGAAUGAAAGGGGUGGAUGGAAAGGUUUGAUUUCCUAUCUAGAGAUGGAAGA,1.23
CCUUCCAGAAUCCAGGCCCCAUCUCCCCCAACUCCACAGCCCCUCCCGAGCCUCAAGGCAAGUCCAGGACUCAGACCGGGGAGGCCCGGGCCAGCAGCUCCCAGUGUGAC,0.292
UUUGCACCCCGGCAUCAGCACAGGGGUCCCUGCCCCACCCUCCGGCAGCUCAGGGAGUGUUUUCCUGUGAGGCCUCCCCCAUCAGUGGACCAGAGGGAGAAGCCCGAUGC,0.45
